# Assay results pooled from the literature.
# Parts stem from different laboratories: compare values within a part only.
# UniProt O15530, sequence (whole entry, looked up): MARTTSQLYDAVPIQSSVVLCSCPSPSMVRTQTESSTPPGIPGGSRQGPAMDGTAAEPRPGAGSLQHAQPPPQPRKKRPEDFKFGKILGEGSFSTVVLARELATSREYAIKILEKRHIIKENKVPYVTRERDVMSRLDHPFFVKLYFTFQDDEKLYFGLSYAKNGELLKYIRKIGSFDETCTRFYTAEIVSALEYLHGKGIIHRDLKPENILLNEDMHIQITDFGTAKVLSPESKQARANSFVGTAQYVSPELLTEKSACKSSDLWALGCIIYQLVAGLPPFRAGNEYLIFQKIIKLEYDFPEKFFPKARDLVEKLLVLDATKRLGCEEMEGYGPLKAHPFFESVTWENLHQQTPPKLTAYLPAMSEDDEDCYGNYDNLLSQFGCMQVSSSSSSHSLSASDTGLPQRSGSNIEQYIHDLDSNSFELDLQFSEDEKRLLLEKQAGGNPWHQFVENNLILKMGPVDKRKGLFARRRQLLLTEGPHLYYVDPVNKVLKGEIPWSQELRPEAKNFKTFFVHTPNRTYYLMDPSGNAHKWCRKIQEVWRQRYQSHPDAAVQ
# UniProt P07333, sequence (whole entry, looked up): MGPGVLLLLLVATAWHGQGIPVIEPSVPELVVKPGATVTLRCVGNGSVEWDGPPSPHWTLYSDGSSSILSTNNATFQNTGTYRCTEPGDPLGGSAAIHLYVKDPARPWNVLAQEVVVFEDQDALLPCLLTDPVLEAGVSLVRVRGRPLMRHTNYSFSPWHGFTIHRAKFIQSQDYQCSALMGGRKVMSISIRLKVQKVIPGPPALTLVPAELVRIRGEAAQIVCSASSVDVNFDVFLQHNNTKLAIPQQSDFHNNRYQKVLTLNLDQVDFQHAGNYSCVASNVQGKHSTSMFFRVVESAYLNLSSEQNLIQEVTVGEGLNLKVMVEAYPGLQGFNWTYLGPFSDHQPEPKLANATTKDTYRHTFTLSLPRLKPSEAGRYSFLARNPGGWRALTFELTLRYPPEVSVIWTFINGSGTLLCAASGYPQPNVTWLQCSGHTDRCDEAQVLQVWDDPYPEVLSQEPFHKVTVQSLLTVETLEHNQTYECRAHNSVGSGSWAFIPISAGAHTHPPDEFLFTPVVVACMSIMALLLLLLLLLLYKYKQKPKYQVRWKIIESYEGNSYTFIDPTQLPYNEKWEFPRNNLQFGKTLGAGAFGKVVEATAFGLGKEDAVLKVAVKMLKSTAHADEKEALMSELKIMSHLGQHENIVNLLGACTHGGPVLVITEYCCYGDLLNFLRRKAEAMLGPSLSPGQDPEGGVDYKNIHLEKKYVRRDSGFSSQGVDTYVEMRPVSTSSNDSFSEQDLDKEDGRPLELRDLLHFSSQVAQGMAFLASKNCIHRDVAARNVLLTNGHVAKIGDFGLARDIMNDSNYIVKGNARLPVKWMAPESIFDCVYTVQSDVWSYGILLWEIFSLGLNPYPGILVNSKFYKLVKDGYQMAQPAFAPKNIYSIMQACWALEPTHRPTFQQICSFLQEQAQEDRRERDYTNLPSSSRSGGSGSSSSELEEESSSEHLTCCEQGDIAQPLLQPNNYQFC
# UniProt P49840, sequence (whole entry, looked up): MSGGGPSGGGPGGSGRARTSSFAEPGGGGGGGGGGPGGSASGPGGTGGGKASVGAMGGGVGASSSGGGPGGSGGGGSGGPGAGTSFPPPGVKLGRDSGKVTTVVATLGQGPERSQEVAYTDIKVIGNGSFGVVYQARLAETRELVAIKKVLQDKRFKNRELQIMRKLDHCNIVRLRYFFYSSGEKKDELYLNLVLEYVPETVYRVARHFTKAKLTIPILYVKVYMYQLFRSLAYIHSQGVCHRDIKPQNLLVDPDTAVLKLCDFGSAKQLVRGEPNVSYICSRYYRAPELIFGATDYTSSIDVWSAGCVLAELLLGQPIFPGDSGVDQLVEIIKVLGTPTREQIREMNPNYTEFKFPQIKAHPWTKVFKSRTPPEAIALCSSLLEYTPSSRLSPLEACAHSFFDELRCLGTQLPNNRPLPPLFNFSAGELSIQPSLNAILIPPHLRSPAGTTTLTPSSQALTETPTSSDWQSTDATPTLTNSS
# UniProt P45984, sequence (whole entry, looked up): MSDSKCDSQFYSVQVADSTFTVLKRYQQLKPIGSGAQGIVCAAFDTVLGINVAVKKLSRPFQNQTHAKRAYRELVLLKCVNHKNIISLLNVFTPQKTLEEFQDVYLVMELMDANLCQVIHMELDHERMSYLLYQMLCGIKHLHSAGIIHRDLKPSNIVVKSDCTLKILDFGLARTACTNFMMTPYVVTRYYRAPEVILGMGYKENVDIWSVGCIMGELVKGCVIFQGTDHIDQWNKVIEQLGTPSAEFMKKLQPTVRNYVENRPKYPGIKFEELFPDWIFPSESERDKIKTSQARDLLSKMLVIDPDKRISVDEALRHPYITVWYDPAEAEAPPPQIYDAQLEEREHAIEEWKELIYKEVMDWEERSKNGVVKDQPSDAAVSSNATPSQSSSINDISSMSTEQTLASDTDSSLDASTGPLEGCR

# Sample 1
# Species: human
# Medium: microsomes or S9
# Tested at: 2 µM
# Time: 0.5 h
SMILES,remaining compound [%]
CCc1cc(CN2OCC(C)(C)C2=O)c(Cl)s1,0.588
COc1nc(OC)c(C(C)C)c(-c2nnn(C)n2)n1,46.3
Cc1cc(C)c(C(=O)c2ccc(C(=O)NC(C)(C)C)cc2)c(C)c1,6.11
CCc1ccccc1NC(=O)CN(C)C(=O)C1CCN(c2cnn(Cc3ccccc3)c(=O)c2)C1 (stereo not drawn),14.9
Clc1ccccc1Sc1c(C2CC2)n[nH]c1C1CC1,22.4
COc1ccc(CN(C(=O)Cn2nnc3ccccc32)C(C(=O)NCCC(C)C)c2ccccc2)cc1 (stereo not drawn),59.4
O=C(NCCc1c[nH]c2ccccc12)c1c(OCC2CC2)cc(=O)n2c1CCOCC2,50.8
CC(C)c1nc(OCC(=O)O)c(C#N)c2c1COC(C)(C)C2,68.7
CC(C)c1nc(-c2cc3ccccc3nc2O)no1,39.7
CCn1nc(C)c2ncnc(NC3CCCCCC3)c21,26.6
CC(NC(C)c1nc(N)nc(N(C)C)n1)c1ccccc1 (stereo not drawn),55.4
CC1(C)Cc2c(c(N3CCOCC3)nc3sc4c(=O)n(CCc5ccccc5)cnc4c23)CO1,4.98
CN1C(=O)OC2(C)CC(C)(C)c3ccccc3C12C (stereo not drawn),7.76

# Sample 2
# SMILES: NS(=O)(=O)c1cc(NC(=O)Cc2ccccc2)ccc1Oc1cccc(Cl)c1
# Observed: cell-free assay
# Technique: competition with immobilised ligand
# Tested at: 1 µM
target,remaining binding
"Serine/threonine-protein kinase D2 (PRKD2, Homo sapiens, UniProt Q9BZL6)",85%
"3-phosphoinositide-dependent protein kinase 1 (PDPK1, Homo sapiens, UniProt O15530)",95%
"Ephrin type-A receptor 6 (EPHA6, Homo sapiens, UniProt Q9UF33)",83%
"Testis-specific serine/threonine-protein kinase 3 (TSSK3, Homo sapiens, UniProt Q96PN8)",87%
"Mitogen-activated protein kinase 14 (MAPK14, Homo sapiens, UniProt Q16539)",100%
"Mitogen-activated protein kinase kinase kinase kinase 4 (MAP4K4, Homo sapiens, UniProt O95819)",71%
"Mitogen-activated protein kinase 9 (MAPK9, Homo sapiens, UniProt P45984)",83%
"Tyrosine-protein kinase ABL1, phosphorylated (ABL1, Homo sapiens, UniProt P00519, T315I)",88%
"Tyrosine-protein kinase BTK (BTK, Homo sapiens, UniProt Q06187)",76%
"Mitogen-activated protein kinase 15 (MAPK15, Homo sapiens, UniProt Q8TD08)",68%
"Mitogen-activated protein kinase kinase kinase 10 (MAP3K10, Homo sapiens, UniProt Q02779)",98%
"Serine/threonine-protein kinase ULK3 (ULK3, Homo sapiens, UniProt Q6PHR2)",74%
"Peripheral plasma membrane protein CASK (CASK, Homo sapiens, UniProt O14936)",86%
"Tyrosine-protein kinase receptor Tie-1 (TIE1, Homo sapiens, UniProt P35590)",100%
"Microtubule-associated serine/threonine-protein kinase 1 (MAST1, Homo sapiens, UniProt Q9Y2H9)",85%
"Non-receptor tyrosine-protein kinase TYK2, JH2 (TYK2, Homo sapiens, UniProt P29597)",67%
"G protein-coupled receptor kinase 4 (GRK4, Homo sapiens, UniProt P32298)",100%
"Proto-oncogene tyrosine-protein kinase receptor Ret (RET, Homo sapiens, UniProt P07949, V804L)",80%
"Serine/threonine-protein kinase pim-3 (PIM3, Homo sapiens, UniProt Q86V86)",96%
"MAP/microtubule affinity-regulating kinase 3 (MARK3, Homo sapiens, UniProt P27448)",100%
"Cyclin-dependent kinase 16 (CDK16, Homo sapiens, UniProt Q00536)",92%
"Fibroblast growth factor receptor 3 (FGFR3, Homo sapiens, UniProt P22607, G697C)",100%
"Serine/threonine-protein kinase D1 (PRKD1, Homo sapiens, UniProt Q15139)",96%

# Sample 3
# SMILES: CS(=O)(=O)CCNCc1ccc(-c2ccc3ncnc(Nc4ccc(OCc5cccc(F)c5)c(Cl)c4)c3c2)o1
# Observed: enzyme activity
# Mode: inhibitor
# Tested at: 0.5 µM
# Reference: control
target,remaining activity
"Glycogen synthase kinase-3 alpha (GSK3A, Homo sapiens, UniProt P49840)",105%
"SRSF protein kinase 3 (SRPK3, Homo sapiens, UniProt Q9UPE1)",104%
"Serine/threonine-protein kinase PAK 2 (PAK2, Homo sapiens, UniProt Q13177)",102%
"Ephrin type-A receptor 7 (EPHA7, Homo sapiens, UniProt Q15375)",95.6%
"Ephrin type-B receptor 2 (EPHB2, Homo sapiens, UniProt P29323)",101%
"G protein-coupled receptor kinase 6 (GRK6, Homo sapiens, UniProt P43250)",101%
"Myosin light chain kinase, smooth muscle (MYLK, Homo sapiens, UniProt Q15746)",90.7%
"Serine/threonine-protein kinase Sgk1 (SGK1, Homo sapiens, UniProt O00141)",128%
"Macrophage colony-stimulating factor 1 receptor (CSF1R, Homo sapiens, UniProt P07333)",106%
"Protein kinase C gamma type (PRKCG, Homo sapiens, UniProt P05129)",79.3%

# Sample 4
# Target: DNA polymerase theta, helicase domain (POLQ, Homo sapiens, UniProt O75417)
# UniProt O75417, sequence (whole entry, looked up): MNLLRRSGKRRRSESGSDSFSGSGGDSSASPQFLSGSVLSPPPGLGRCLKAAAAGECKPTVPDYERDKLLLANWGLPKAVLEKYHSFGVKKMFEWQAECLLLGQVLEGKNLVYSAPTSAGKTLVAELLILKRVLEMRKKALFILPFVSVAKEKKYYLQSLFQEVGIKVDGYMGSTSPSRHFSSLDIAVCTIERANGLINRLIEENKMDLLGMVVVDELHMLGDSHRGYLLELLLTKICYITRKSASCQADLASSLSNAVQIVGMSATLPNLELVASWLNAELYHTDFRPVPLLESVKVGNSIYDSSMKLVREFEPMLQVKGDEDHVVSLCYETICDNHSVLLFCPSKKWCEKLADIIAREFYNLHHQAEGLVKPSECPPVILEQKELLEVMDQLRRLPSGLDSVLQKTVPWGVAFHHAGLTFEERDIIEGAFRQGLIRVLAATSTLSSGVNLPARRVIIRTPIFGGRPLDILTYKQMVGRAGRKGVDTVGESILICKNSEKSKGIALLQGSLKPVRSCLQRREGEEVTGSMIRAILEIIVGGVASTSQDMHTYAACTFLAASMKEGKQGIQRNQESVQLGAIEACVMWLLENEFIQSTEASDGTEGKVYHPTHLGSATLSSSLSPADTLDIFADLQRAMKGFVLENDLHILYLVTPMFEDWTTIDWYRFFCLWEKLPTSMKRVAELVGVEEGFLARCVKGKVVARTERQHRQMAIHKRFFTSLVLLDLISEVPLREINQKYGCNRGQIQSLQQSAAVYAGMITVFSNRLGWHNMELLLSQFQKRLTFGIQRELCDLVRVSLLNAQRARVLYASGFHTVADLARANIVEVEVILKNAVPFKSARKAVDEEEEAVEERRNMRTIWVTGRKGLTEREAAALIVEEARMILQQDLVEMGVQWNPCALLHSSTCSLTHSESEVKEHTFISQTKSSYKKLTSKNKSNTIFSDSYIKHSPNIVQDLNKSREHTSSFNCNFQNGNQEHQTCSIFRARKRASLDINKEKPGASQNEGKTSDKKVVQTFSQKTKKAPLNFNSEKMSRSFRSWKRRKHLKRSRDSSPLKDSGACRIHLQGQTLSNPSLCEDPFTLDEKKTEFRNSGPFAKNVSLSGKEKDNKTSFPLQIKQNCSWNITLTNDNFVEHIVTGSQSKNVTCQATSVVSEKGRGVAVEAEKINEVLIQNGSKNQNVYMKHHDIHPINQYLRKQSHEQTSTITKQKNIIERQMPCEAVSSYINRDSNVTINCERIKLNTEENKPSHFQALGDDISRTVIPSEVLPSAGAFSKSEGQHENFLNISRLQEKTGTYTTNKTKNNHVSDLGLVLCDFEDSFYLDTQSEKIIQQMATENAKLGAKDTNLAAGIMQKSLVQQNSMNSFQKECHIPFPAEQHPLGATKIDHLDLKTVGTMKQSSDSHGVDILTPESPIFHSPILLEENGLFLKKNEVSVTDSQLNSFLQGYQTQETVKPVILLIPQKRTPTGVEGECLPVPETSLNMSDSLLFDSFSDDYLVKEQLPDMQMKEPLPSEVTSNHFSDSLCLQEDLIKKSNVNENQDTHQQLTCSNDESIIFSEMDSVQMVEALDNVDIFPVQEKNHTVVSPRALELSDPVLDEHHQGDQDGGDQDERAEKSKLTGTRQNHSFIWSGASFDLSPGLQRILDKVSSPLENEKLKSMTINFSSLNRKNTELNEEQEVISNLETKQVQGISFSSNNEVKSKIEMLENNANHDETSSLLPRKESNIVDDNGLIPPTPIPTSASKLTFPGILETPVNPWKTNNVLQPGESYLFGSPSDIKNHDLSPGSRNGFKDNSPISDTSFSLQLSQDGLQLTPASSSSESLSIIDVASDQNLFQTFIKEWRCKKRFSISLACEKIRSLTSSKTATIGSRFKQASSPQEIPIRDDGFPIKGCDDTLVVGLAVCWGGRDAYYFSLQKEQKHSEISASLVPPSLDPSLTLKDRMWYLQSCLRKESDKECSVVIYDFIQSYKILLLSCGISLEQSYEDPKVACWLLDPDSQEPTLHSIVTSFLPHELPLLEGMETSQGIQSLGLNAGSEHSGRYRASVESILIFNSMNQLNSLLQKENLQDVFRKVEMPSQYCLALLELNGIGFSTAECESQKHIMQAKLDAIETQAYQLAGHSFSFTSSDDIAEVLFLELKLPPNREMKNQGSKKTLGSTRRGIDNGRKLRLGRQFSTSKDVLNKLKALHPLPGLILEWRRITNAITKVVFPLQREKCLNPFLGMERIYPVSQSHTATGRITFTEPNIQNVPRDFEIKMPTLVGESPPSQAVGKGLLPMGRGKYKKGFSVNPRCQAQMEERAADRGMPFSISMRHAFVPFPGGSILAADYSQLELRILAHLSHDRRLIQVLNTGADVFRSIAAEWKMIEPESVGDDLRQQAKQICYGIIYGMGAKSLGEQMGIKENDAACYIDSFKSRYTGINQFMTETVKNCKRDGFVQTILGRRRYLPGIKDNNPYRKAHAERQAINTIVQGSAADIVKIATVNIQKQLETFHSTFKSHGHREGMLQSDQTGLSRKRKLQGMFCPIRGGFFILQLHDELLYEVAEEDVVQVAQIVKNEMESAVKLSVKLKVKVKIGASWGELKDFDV
# Observed: ATPase activity
# Tested at: concentration not given
# Notes: with minus without ssDNA
SMILES,activity difference [%]
Cc1ccc(C(=O)Nc2ccccc2C(=O)O)cc1S(=O)(=O)N1CCCCCC1,4.13
Cc1ccc(NC(=O)CSc2ncc(S(=O)(=O)c3ccc(C(C)C)cc3)c(=O)[nH]2)cc1C,14.8
C[C@H]1[C@H](C)CC[C@]2(C(=O)O)CC[C@]3(C)C(=CC[C@@H]4[C@@]5(C)C[C@@H](O)[C@H](O)[C@@](C)(CO)[C@@H]5CC[C@]43C)[C@H]12,0.957
CC(=O)Oc1ccccc1C(=O)Nc1ncc([N+](=O)[O-])s1,4.44
O=C(Nc1cc2cc[nH]c2cn1)c1ccccc1,3.95

# Some of these lines once more (sample 2):
target,remaining binding
"Mitogen-activated protein kinase kinase kinase 10 (MAP3K10, Homo sapiens, UniProt Q02779)",98%
"Serine/threonine-protein kinase ULK3 (ULK3, Homo sapiens, UniProt Q6PHR2)",74%
"Peripheral plasma membrane protein CASK (CASK, Homo sapiens, UniProt O14936)",86%
"Tyrosine-protein kinase receptor Tie-1 (TIE1, Homo sapiens, UniProt P35590)",100%
"Microtubule-associated serine/threonine-protein kinase 1 (MAST1, Homo sapiens, UniProt Q9Y2H9)",85%
"Non-receptor tyrosine-protein kinase TYK2, JH2 (TYK2, Homo sapiens, UniProt P29597)",67%
"G protein-coupled receptor kinase 4 (GRK4, Homo sapiens, UniProt P32298)",100%
"Proto-oncogene tyrosine-protein kinase receptor Ret (RET, Homo sapiens, UniProt P07949, V804L)",80%
